# Assay results of several laboratories.
# Protocols differ between the studies behind these lines. Values joined by “and” are separate records of one study, mostly repeats; a detail may differ. ± marks the error that the study gave.
# Chain of UniProt Q8TDC3 (whole entry, looked up): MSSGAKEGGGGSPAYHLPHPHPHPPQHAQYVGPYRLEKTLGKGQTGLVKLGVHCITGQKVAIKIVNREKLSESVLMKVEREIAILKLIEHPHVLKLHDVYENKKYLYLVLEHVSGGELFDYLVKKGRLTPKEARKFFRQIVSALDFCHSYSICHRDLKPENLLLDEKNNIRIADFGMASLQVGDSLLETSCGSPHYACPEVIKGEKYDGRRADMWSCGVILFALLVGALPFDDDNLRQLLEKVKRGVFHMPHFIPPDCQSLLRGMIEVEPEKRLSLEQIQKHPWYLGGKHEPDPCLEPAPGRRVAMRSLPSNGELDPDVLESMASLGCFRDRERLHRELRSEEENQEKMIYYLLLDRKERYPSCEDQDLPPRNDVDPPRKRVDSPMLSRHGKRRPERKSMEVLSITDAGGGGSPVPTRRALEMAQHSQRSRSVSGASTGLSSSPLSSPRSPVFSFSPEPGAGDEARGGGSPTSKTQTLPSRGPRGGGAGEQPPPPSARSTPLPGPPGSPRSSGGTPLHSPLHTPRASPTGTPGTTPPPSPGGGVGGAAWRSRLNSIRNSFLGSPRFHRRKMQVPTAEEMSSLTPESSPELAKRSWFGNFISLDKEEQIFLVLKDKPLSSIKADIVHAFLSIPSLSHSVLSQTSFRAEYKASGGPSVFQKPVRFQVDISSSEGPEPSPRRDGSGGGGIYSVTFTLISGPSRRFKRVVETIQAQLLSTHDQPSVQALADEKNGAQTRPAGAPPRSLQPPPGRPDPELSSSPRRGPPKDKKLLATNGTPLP
# Chain of UniProt P33261 (whole entry, looked up): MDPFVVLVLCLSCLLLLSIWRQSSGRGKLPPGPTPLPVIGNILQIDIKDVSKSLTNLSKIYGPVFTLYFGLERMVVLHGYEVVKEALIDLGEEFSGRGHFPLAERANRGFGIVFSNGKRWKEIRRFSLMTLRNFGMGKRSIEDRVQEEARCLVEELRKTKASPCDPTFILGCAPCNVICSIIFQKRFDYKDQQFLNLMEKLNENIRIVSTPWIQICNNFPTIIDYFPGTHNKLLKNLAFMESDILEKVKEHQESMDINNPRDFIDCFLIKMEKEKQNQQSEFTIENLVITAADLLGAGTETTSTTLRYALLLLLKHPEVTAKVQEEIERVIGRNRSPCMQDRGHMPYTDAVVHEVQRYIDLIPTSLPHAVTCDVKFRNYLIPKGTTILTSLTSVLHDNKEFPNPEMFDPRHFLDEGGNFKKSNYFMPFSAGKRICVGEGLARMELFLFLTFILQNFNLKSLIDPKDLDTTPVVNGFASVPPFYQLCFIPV
Structure (SMILES),target or system,test,test system,conditions,scale,quantity,result
O=C1C2CC3CC1CC(C(=O)N1CCN(c4ccc([N+](=O)[O-])c5ncccc45)CC1)(C3)C2,Salmonella typhimurium,Ames test,TA100,"0.02 µg/well, with S9",relative to: vehicle,revertant fold increase,1
COc1cccc(OCCN2CCC[C@H](CN3CCc4cc(OC)c(OC)cc4CC3=O)C2)c1,,,"C57BL/6J mouse, male, chronic social defeat stress","intraperitoneal, 5 mg/kg, 14 d post-dose",relative to: before dosing,"time in centre, open field",no effect
CC(=O)[O-].O.O.[O-]c1ccc(Br)cc1C=NCCN1CCOCC1.[Zn+2],,hydroxyl radical scavenging,,80 µM,,inhibition,16.1%
CC(CCC(=O)NCc1ccc(C(=O)NO)cc1)C1CCC2C3C(O)CC4CC(O)CCC4(C)C3CCC12C (stereo not drawn),,item: Tauro-conj,"PCK rat (Pkhd1 mutant), liver","oral gavage, dose not given, 5 months",relative to: total bile acids,relative abundance,76.6%
COc1cc(O)ccc1CCC(c1ccc(O)cc1)c1cc2c(c(C)c1O)OC(c1ccc(O)cc1)CC2 (mixture of isomers),,,human blood,"30 µM, together with: A23187",,20-OH-LTB4 level,3 ± 3 pg/mL
COC1CN([C@H]2CC[C@H]([C@@]3(C)Oc4c(Cl)cc(C(=O)NCc5c(SC)cc(C)[nH]c5=O)c(C)c4O3)CC2)C1,,"RNA-seq, item: MPV17L","human, whole blood","dose not given, 24 h",relative to: pretreatment baseline,log2 fold change,1.45
C[C@H](NC(=O)COC(=O)[C@H](C)NC(=O)CO)C(=O)O,,,water,"pH 2, 37 °C",,backbone scission rate constant,0.0013 h⁻¹
COc1ccc2cc3[n+](cc2c1OCCCOC(=O)c1cscn1)CCc1cc2c(cc1-3)OCO2,,,"C57BL/6 mice, high-fat diet","oral gavage, 20 mg/kg daily, 14 weeks",relative to: HFD control,plasma LDL-C reduction,43.5%
CCCCCc1ccc(S(=O)(=O)N2CC2C(=O)OC)cc1 (stereo not drawn),,,"mouse, Lewis lung carcinoma","intraperitoneal, 15 mg/kg, 16 doses, day 12",,tumour volume,366 mm3
[Mn+2].[O-][Cl+3]([O-])([O-])[O-].[O-][Cl+3]([O-])([O-])[O-].c1ccc(CN2Cc3cccc(n3)CN(Cc3ccccn3)Cc3cccc(n3)C2)nc1,,,HEPES buffer with NaCl,"33 °C, 1.4 T",,r1 relaxivity,2.53 mM⁻¹ s⁻¹
CNS(=O)(=O)Nc1nccc(Cc2c(C)c3ccc(Oc4ncccc4F)cc3oc2=O)c1F,T84,cell viability,,7 days,,IC50,> 1 µM
CC[C@H](C)[C@H](NC(=O)C[C@H](NC(=O)CN1CCN2CCN(CC1)CC(=O)[O][Al]([18F])[O]C(=O)C2)C(=O)O)C(=O)N[C@H]1CCc2cccc3c2N(C1=O)[C@H](C(=O)NCc1cn[nH]n1)C3,MC-38 tumour model,,"host not given, stomach","30 min, tumour-bearing",,tracer uptake,0.78 %ID/g
Cc1ncsc1-c1ccc(C(C)NC(=O)C2CC(O)CN2C(=O)C(NC(=O)CCCCCCCCCCN2CCCC(Nc3ncc(Cl)c(Nc4ccccc4S(=O)(=O)C(C)C)n3)C2)C(C)(C)C)cc1 (stereo not drawn),22Rv1,"RNA-seq, item: TMEM185B mRNA",,concentration not given,relative to: DMSO,log2 fold change,-1.57
Nc1ncc(-c2cc(-c3cnn(CC(F)(F)F)c3)ncc2F)nc1C(=O)NC1CNCC(F)C1 (stereo not drawn),PRKG1,KINOMEscan,,1 µM,relative to: DMSO control,remaining binding,100%
CN(CCNCc1cc(C(=O)[O-])ccc1[O-])CCNCc1cc(C(=O)[O-])ccc1[O-].[Cl-].[Fe+3].[K+].[K+],,,human serum albumin 35 mg/mL,"pH 7.4, 33 °C, 1.4 T",,r1 relaxivity,1.5 ± 0.1 mM⁻¹ s⁻¹
CC(C)C[C@H](NC(=O)CNC(=O)[C@H](CCC(N)=O)NC(=O)[C@H](CC(C)C)NC(=O)[C@H](CC(C)C)NC(=O)[C@H](CCCNC(=N)N)NC(=O)[C@H](CCC(N)=O)NC(=O)[C@H](CC(C)C)NC(=O)[C@H](CCCNC(=N)N)NC(=O)[C@H](C)NC(=O)CNC(=O)[C@H](CCC(=O)O)NC(=O)[C@H](CCCNC(=N)N)NC(=O)[C@H](CC(C)C)NC(=O)[C@H](CCCNC(=N)N)NC(=O)[C@H](CO)NC(=O)[C@H](CC(C)C)NC(=O)[C@H](CCC(=O)O)NC(=O)[C@H](CO)NC(=O)[C@@H](NC(=O)[C@H](Cc1ccccc1)NC(=O)[C@@H](NC(=O)CNC(=O)[C@H](CC(=O)O)NC(=O)C(C)(C)NC(=O)[C@@H](N)Cc1c[nH]cn1)[C@@H](C)O)[C@@H](C)O)C(=O)N[C@@H](CC(C)C)C(=O)N[C@@H](CCC(N)=O)C(=O)NCC(=O)N[C@@H](CC(C)C)C(=O)N[C@H](C(=O)NCC(=O)N[C@@H](CCCCNC(=O)COCCOCCNC(=O)COCCOCCNC(=O)CC[C@H](NC(=O)CCCCCCCCCCCCCCCCC(=O)O)C(=O)O)C(N)=O)C(C)C,,,DIO C57BL/6J mice,"dose not given, day 28, together with: GLP-1R agonist co-treatment",,plasma active ghrelin,increased
CN1CCCNC(=O)c2cccc(c2)C(=O)NCCCN(C)CCCNc2cccc3c2C(=O)c2cccc(c2C3=O)NCCC1,SAS,"RNA-Seq, item: ZFP41 mRNA",,"1 µM, 6 h",relative to: untreated cells,log2 fold change,0.893
CC(C)C[C@H](NC(=O)[C@H](Cc1ccccc1)NC(=O)[C@H](C)NC(=O)[C@@H](CS)NC(=O)CNC(=O)[C@H](N)CO)C(=O)N[C@@H](CO)C(=O)N[C@H](C(=O)N[C@@H](CCCCN)C(=O)N[C@@H](CCCCN)C(=O)N[C@@H](CCC(N)=O)C(=O)N[C@@H](Cc1ccccc1)C(=O)N[C@@H](CCC(=O)O)C(=O)N[C@@H](CCC(=O)O)C(=O)N[C@@H](CC(C)C)C(=O)N[C@H](C(=O)N[C@@H](CC(C)C)C(=O)NCC(=O)N[C@@H](CCC(=O)O)C(=O)N[C@@H](Cc1ccccc1)C(=O)N[C@@H](CC(C)C)C(=O)N[C@H](CCCCN)C(=O)N[C@H](CC(C)C)C(=O)N[C@H](CC(=O)O)C(=O)N[C@@H](CCCNC(=N)N)C(=O)N[C@H](CCCNC(=N)N)C(=O)N[C@@H](CCCNC(=N)N)C(=O)N[C@@H](CCCCN)C(=O)O)[C@@H](C)O)C(C)C,,immunofluorescence,"mouse A549 xenograft, tumour","intratumoral or intravenous, dose not given",,α-SMA staining,decreased
CNC(=O)C1CCCN(C(=O)C2CC3CCC2N3C(=O)[C@@H]2C[C@@H](O)CN2C(=O)NCc2cccc(Cl)c2F)C1 (mixture of isomers),"Cytochrome P450 2C19 (CYP2C19, Homo sapiens, UniProt P33261)","enzyme activity, inhibitor, time-dependent inhibition",,"5.56 µM, preincubated with NADPH",relative to: negative control,remaining activity,113%
COc1cnc2cccc(N3CCc4c(cc(Cn5ccnc5)cc4-c4cn(C)nc4C(F)(F)F)C3=O)c2c1,,,"BALB/c nude mice, MV4-11 xenograft","intraperitoneal, 50 mg/kg, day 17",,tumour volume,178 mm3 and 151 mm3 and 129 mm3 and 169 mm3
COc1ccc(C(=O)CCc2cc(C(CCc3ccc(O)cc3OC)c3ccc(O)cc3)c(O)cc2OC)cc1 (racemic),,,human blood,"1 µM, together with: A23187",,DHA level,117000 ± 33600 pg/mL
C=CC(=O)Nc1cccc(Cn2ncc3cnc(Nc4cnn(CCOC)c4)nc32)c1,PIP5K2C human,"binding, KINOMEscan",,100 nM,lower = stronger binding,percent of control,29%
CCN(CC)CC#CCNc1ccnc2cc(Cl)ccc12,Salmonella typhimurium,mini-Ames test,TA97a,"1000.0 µg/well, without S9",,revertants,0 revertants/well
N[C@@H](CNC(=O)N[C@@H](CS)C(=O)NCC(=O)O)C(=O)O,,anti-DNP immunoblot,"mouse C57BL/6, Aβ i.c.v. model, brain","intranasal, dose not given",relative to: Aβ-only,protein carbonylation,1.5 fold
COc1ccccc1-c1ccncc1C(=O)Nc1nnc(OCc2ccc(Cl)cc2)s1,,,"Brca1 Δ11/Δ11 Polq-/- MEFs, Mus musculus","1.25 µM, average of runs",relative to: 0 µM,colony survival,92.5%
C=C(NC(=O)c1csc(-c2nc3c(cc2O)-c2nc(cs2)C(=O)NC(C(C)O)C(=O)NC(=C(C)OC)c2nc(cs2)C(=O)NC2c4nc(cs4)C(=O)NC(COC(=O)c4c5c6c(cccc6n4O)COC(=O)C(OC4CC(C)(O)C(N(C)C)C(C)O4)C2OC5)c2nc-3cs2)n1)C(N)=O (stereo not drawn),,,"Sprague-Dawley rat, male, plasma","intravenous infusion, 6 mg/kg, multiple doses, day 1",,half-life,5.51 h
NC[C@@H](C(=O)Nc1ccc(-c2cn[nH]c2)cc1)c1ccccc1,,tonometry,"NZW rabbit, magnetic bead-induced ocular hypertension","ocular, 0.03%, 26 h",,IOP,32.9 mmHg
Cc1nn(-c2cccc(N)c2)c(=O)c2cnc(Nc3ccc(N4CCNCC4)cc3)nc12,"Serine/threonine-protein kinase BRSK1 (BRSK1, Homo sapiens, UniProt Q8TDC3)","enzyme activity, inhibitor",,,,IC50,> 10 µM
CC(=O)N1c2ccc(-c3ccc(CNC(=O)c4cn5cc(-c6cnc(N)nc6)nc(N6CCOCC6)c5n4)cc3)cc2CC[C@@H]1C,,,"Eµ-Myc lymphoma cells, mouse, Eµ-Myc lymphoma transplant","45 mg/kg/day, beyond day 100",,lymphoma-free mice,90%
CN1CCC[C@]1(C)/C=C/S(=O)(=O)NC(=O)Nc1c2c(cc3c1CCC3)CCC2,,,"human, whole blood ex vivo","50 mg single dose, 12 h, single ascending dose, together with: LPS and ATP",,IL-18 inhibition,126%
CCCCCCCCCCCCCCCC(=O)NCCCC[C@H](N)C(=O)N[C@@H](CC(=O)O)C(=O)N[C@H](C(=O)N[C@@H](Cc1c[nH]cn1)C(=O)N[C@@H](Cc1ccccc1)C(=O)N[C@@H](CCCNC(=N)N)C(=O)N[C@H](C(=O)N[C@@H](Cc1ccccc1)C(=O)N[C@@H](CCCNC(=N)N)C(=O)N[C@@H](CO)C(=O)N[C@@H](Cc1c[nH]cn1)C(=O)N[C@@H](CO)C(=O)N[C@@H](CC(=O)O)C(=O)N[C@@H](Cc1ccc(O)cc1)C(=O)N[C@@H](CCCNC(=N)N)C(=O)N[C@@H](CCCNC(=N)N)C(=O)N[C@H](C(=O)O)[C@@H](C)CC)[C@@H](C)O)[C@@H](C)O,,,"C57BL/6J mice, MCD diet-fed, serum","dose not given, 3 weeks, NASH model",,total cholesterol,57.2 ± 9.9 mg/dL
COc1ccc2c(c1)CN(C(=O)CCN1CCC(Cc3ccccc3)CC1)CCS2,,,patients with paroxysmal atrial fibrillation,"oral, 540 mg, converted patients of 6",,mean time to conversion to sinus rhythm,86.7 ± 8.4 min
N=C(N)NCCC[C@@H]1NC(=O)[C@H](CCCNC(=N)N)NC(=O)[C@@H](C(c2ccccc2)c2ccccc2)NC(=O)[C@H](Cc2c[nH]c3ccccc23)NC(=O)[C@@H](C(c2ccccc2)c2ccccc2)NC(=O)[C@@H](CCCNC(=N)N)NC(=O)[C@@H](CCCNC(=N)N)NC1=O,,,bacterial membrane liposomes,"5 µg/mL, 50 min",,calcein leakage,38%

# A few entries again:
Structure (SMILES),target or system,test,test system,conditions,scale,quantity,result
O=C1C2CC3CC1CC(C(=O)N1CCN(c4ccc([N+](=O)[O-])c5ncccc45)CC1)(C3)C2,Salmonella typhimurium,Ames test,TA100,"0.02 µg/well, with S9",relative to: vehicle,revertant fold increase,1
CC(=O)N1c2ccc(-c3ccc(CNC(=O)c4cn5cc(-c6cnc(N)nc6)nc(N6CCOCC6)c5n4)cc3)cc2CC[C@@H]1C,,,"Eµ-Myc lymphoma cells, mouse, Eµ-Myc lymphoma transplant","45 mg/kg/day, beyond day 100",,lymphoma-free mice,90%
CNC(=O)C1CCCN(C(=O)C2CC3CCC2N3C(=O)[C@@H]2C[C@@H](O)CN2C(=O)NCc2cccc(Cl)c2F)C1 (mixture of isomers),"Cytochrome P450 2C19 (CYP2C19, Homo sapiens, UniProt P33261)","enzyme activity, inhibitor, time-dependent inhibition",,"5.56 µM, preincubated with NADPH",relative to: negative control,remaining activity,113%
COc1cccc(OCCN2CCC[C@H](CN3CCc4cc(OC)c(OC)cc4CC3=O)C2)c1,,,"C57BL/6J mouse, male, chronic social defeat stress","intraperitoneal, 5 mg/kg, 14 d post-dose",relative to: before dosing,"time in centre, open field",no effect
C[C@H](NC(=O)COC(=O)[C@H](C)NC(=O)CO)C(=O)O,,,water,"pH 2, 37 °C",,backbone scission rate constant,0.0013 h⁻¹
